# Results collected from several papers.
# Lines come from different studies, so protocols differ. ± marks the error that the study gave.
SMILES,cell line,test,conditions,how to read,endpoint,result
CCC(C(=O)O)C1CCC(C)C(C(C)C(O)C(C)C(=O)C(CC)C2OC3(C=CC(NCc4cn(CCCCSC(C)=O)nn4)C4(CCC(C)(C5CCC(O)(CC)C(C)O5)O4)O3)C(C)CC2C)O1 (stereo not shown),HMLER,cell proliferation,,reference: IC50 CD24high/CD44low over IC50 CD24low/CD44high,selectivity ratio,5.3
CCC(=C(c1ccc(Cl)cc1)c1ccc(OCCN(CC)CC)cc1)c1ccc(OC)cc1,Ishikawa,"estrogenic activity, agonist","100 nM, 72 h, unit not given",reference: DMSO,alkaline phosphatase activity,1.73 ± 0.71
COc1cc(CNC(=O)C[C@H](C)CCC=C(C)C)ccc1OCc1cn(-c2ccc(Br)cc2)nn1,SN12C,SRB,"10 µM, 48 h",,growth percent,71.6%
CO[C@H]1N(OC)c2ccccc2[C@@]12CN=C(Nc1cc(C(F)(F)F)cc(C(F)(F)F)c1)S2 (relative stereo),HCT-116,PI flow cytometry,"concentration not given, 48 h",reference: untreated,sub-G1 cells,27.9 fold
N=C(N/N=C/c1cccs1)N/N=C/c1cccs1,PANC-1,crystal violet,72 h,reference: IC50 IMR-90 over IC50 PANC-1,selectivity ratio,1
O=Cc1c(O)ccc2ccccc12,HUVEC,"RNA sequencing, item: FABP4","75 µM, 24 h",reference: DMSO,log2 fold change,-3.15
FC(F)(F)c1ccnc(-c2cc(C(F)(F)F)ccn2)c1.FC(F)(F)c1ccnc(-c2cc(C(F)(F)F)ccn2)c1.[Cl-].[Cl-].[Ru+2].c1csc(-c2ccc(-c3ccc(-c4nc5c6cccnc6c6ncccc6c5[nH]4)s3)s2)c1,SK-MEL-28,,"hypoxia, together with: visible light",,phototherapeutic index,170
COc1cc(CNC(=O)C[C@H](C)CCC=C(C)C)ccc1OCc1cn(-c2ccccc2)nn1,HOP-92,SRB,"10 µM, 48 h",,growth percent,104%
CC/C=C\C/C=C\C/C=C\C/C=C\C/C=C\C/C=C\CCC(=O)Nc1ccn(C2OC(CO)C(O)C2(F)F)c(=O)n1 (stereo not shown),TK-10,"cell growth or viability, SRB",,,GI50,11.5 µM
COc1ccc([C@@H]2CC(=O)c3c(O)cc(O[C@@H]4O[C@H](CO[C@@H]5O[C@@H](C)[C@H](O)[C@@H](O)[C@H]5O)[C@@H](O[C@H]5O[C@H](CO)[C@@H](O)[C@H](O)[C@H]5O)[C@H](O)[C@H]4O)cc3O2)cc1O,MRC5,trypan blue exclusion,"150 µg/mL, 48 h",,cell count,8330 ± 712
COc1cc(CNC(=O)C[C@H](C)CCC=C(C)C)ccc1OCc1cn(-c2ccc(Cl)c(Cl)c2)nn1,HOP-92,SRB,"10 µM, 48 h",,growth percent,51.6%
CC(C)Cc1ccc(C(C)C(=O)[O][Pt]([NH2])([NH2])([Cl])([Cl])[O]C(=O)CCCc2ccccc2)cc1 (stereo not shown),PSN1,,"1 µM, 24 h",,depolarised mitochondria cells,25 to 30%
CC(=O)OC[C@H]1O[C@@H](Sc2sc(C(=O)c3ccc(Br)cc3)c(N)c2-c2nc3ccccc3s2)[C@H](OC(C)=O)[C@@H](OC(C)=O)[C@H]1OC(C)=O,CAKI-1,SRB,"10 µM, 48 h",reference: untreated,growth,67.6%
COc1cc(CNC(=O)C[C@H](C)CCC=C(C)C)ccc1OCc1cn(-c2ccccc2F)nn1,CAKI-1,SRB,"10 µM, 48 h",,growth percent,55.1%
Cc1ccc(CN2C(=O)/C(=N\c3ccc(Cl)cc3Br)c3ccccc32)cc1,A-375,,"2.7 µM, 48 h",,S-phase cells,39.8%
COc1cc(CNC(=O)C[C@H](C)CCC=C(C)C)ccc1O,TK-10,SRB,"10 µM, 48 h",,growth percent,120%
CCc1nnc(NS(=O)(=O)c2ccc(NC(=S)NC(=O)/C=C/c3ccc(F)cc3)cc2)s1,SK-N-AS,,"10 µM, 7 days",,neurosphere size,decreased
COc1cc(CNC(=O)C[C@H](C)CCC=C(C)C)ccc1OCc1cn(-c2cccc([N+](=O)[O-])c2)nn1,SK-MEL-5 melanoma cells,SRB,"10 µM, 48 h",,growth percent,86.2%
CC(=O)Oc1ccccc1C(=O)O,hiPSC cardiac tissues 3D,active force,"15 min per concentration, paced at 1 Hz serum-free",,minimum effective concentration,> 300 µM

# For quick reference, copied from above:
SMILES,cell line,test,conditions,how to read,endpoint,result
O=Cc1c(O)ccc2ccccc12,HUVEC,"RNA sequencing, item: FABP4","75 µM, 24 h",reference: DMSO,log2 fold change,-3.15
FC(F)(F)c1ccnc(-c2cc(C(F)(F)F)ccn2)c1.FC(F)(F)c1ccnc(-c2cc(C(F)(F)F)ccn2)c1.[Cl-].[Cl-].[Ru+2].c1csc(-c2ccc(-c3ccc(-c4nc5c6cccnc6c6ncccc6c5[nH]4)s3)s2)c1,SK-MEL-28,,"hypoxia, together with: visible light",,phototherapeutic index,170
